Measurements from different studies.
Each line is one published result; not all experiments were run side by side.
Organism: HIV-1

SMILES	read-out	cells	strain	setting	EC90 [µM]
O=C(CN1c2c(n[nH]c2-c2cccc(Cl)c2)-c2ccccc2S1(=O)=O)NN=Cc1cccc(Br)c1	viral replication	PBMC	–	–	> 10
C=C(C)[C@]12C[C@@H](COC(C)=O)[C@@]34O[C@]5(O[C@@H]1[C@@H]3[C@@H]1O[C@]1(CO)[C@@H](O)[C@@]1(O)[C@H]4[C@H]([C@H](C)[C@@H]1OC(=O)c1ccccc1)[C@H](C)CCCCCC[C@H]5O)O2	viral replication	MT4	NL4-3	–	< 0.001
CC(=NNC(=O)CN1c2c(-c3ccccc3)n[nH]c2-c2ccccc2S1(=O)=O)c1ccncc1	viral replication	PBMC	–	–	> 100
Cc1ccc(N2C(=O)CCC2(C#N)c2ccc(OCc3ccccc3)cc2)cc1 (centres unmarked)	viral replication	human PBMC	LAI	–	> 100
CC(=NNC(=O)CN1c2c(-c3ccccc3)n[nH]c2-c2ccccc2S1(=O)=O)c1cccs1	viral replication	PBMC	–	–	45.2
Cc1ccc(NC(C#N)c2ccc(OCc3ccc(Cl)cc3Cl)cc2)cc1 (centres unmarked)	viral replication	human PBMC	LAI	–	22.4
Cc1cc(C)cc(C(=O)c2cc(Cl)ccc2OCCn2c3c(c(=O)[nH]c2=O)CCC3)c1	cell-to-cell transmission	MOLT-4/R5 and GHOST(3)R5	CCR5-tropic	CD4-dependent	0.15
Cc1cc(C)cc(NC(C(N)=O)c2c(Cl)cccc2Cl)c1 (centres unmarked)	viral replication	human PBMC	LAI	–	3.1
O=C(CN1c2c(n[nH]c2-c2cccc(Cl)c2)-c2ccccc2S1(=O)=O)NN=Cc1cccc([N+](=O)[O-])c1	viral replication	PBMC	–	–	> 100
CC(=NNC(=O)CN1c2c(-c3ccccc3)n[nH]c2-c2ccccc2S1(=O)=O)c1cc(Cl)sc1Cl	viral replication	PBMC	–	–	38.8
O=C(CN1c2c(n[nH]c2-c2cccc(Cl)c2)-c2ccccc2S1(=O)=O)NN=Cc1ccc(F)cc1	viral replication	PBMC	–	–	26.7
CC(=NNC(=O)CN1c2c(-c3ccccc3)n[nH]c2-c2ccccc2S1(=O)=O)c1nccs1	viral replication	PBMC	–	–	> 100
Cc1ccc(N2C(=O)CCC2(C#N)c2ccc(OC(C)C)cc2)cc1 (centres unmarked)	viral replication	human PBMC	LAI	–	> 100
O=C(CN1c2c(n[nH]c2-c2cccc(Cl)c2)-c2ccccc2S1(=O)=O)NN=Cc1cccc(Cl)c1	viral replication	PBMC	–	–	> 10

A few entries again:
SMILES	read-out	cells	strain	setting	EC90 [µM]
O=C(CN1c2c(n[nH]c2-c2cccc(Cl)c2)-c2ccccc2S1(=O)=O)NN=Cc1ccc(F)cc1	viral replication	PBMC	–	–	26.7
Cc1ccc(NC(C#N)c2ccc(OCc3ccc(Cl)cc3Cl)cc2)cc1 (centres unmarked)	viral replication	human PBMC	LAI	–	22.4
